Published values collected from several papers.
± marks the error that the study gave.
Cell line: MCF7

For CSC(=NN=C(C)c1ccc(S(=O)(=O)N2CCC(C)CC2)cc1)N(C)C, “late apoptotic cells” read 8.38% (annexin V/PI; concentration not given, 72 h, at IC50).
CCC(=CCc1c(O)cc2c(c1O)C(=O)CC(c1cccc(O)c1)O2)CC (stereo not shown) has a growth inhibition of 29.9% (cytotoxicity, MTT; 13.57 µM, 48 h).
CC(=O)[O][Pd][c]1ccccc1N1N=C(C)C(C)(C)C1=O.CC(=O)[O][Pd][c]1ccccc1N1N=C(C)C(C)(C)C1=O: “caspase-8 active cells” 42.9 ± 3.68% (FLICA flow cytometry; 25 µM, 24 h).
COc1ccc(CNC[C@](O)(COCc2ccccc2)[C@@H]2CC[C@@H](C)C[C@H]2OCc2ccccc2)cc1 has an inhibition of 84.5% (cell growth or viability, MTT; 30 µM, 72 h).
Oc1cccc(-c2cccc(O)n2)n1.[Cl-].[Cl-].[Ru+2].c1ccc(-c2ccnc3c2ccc2c(-c4ccccc4)ccnc23)cc1.c1ccc(-c2ccnc3c2ccc2c(-c4ccccc4)ccnc23)cc1 gave an EC50 of 18 µM (cell growth or viability; dark).
For CSC(=S)N/N=C(\C)c1ccc(S(=O)(=O)N2CCC(C)CC2)cc1, “cells in S phase” read 29.8% (flow cytometry; 4.29 µM (IC50), 72 h).
For COC(=O)c1cc(NC2=NC(=O)C(=Cc3ccc(N(C)C)cc3)S2)ccc1OC(C)=O, the fold change was 0.317 (measured: RIF1 mRNA; 0.81 µM, 24 h; relative to: DMSO).
With CCC(=CCc1c(O)cc2c(c1O)C(=O)CC(c1ccc(OC)c(O)c1)O2)CC (stereo not shown) the growth inhibition was 3.55% (cytotoxicity, MTT; 1.255 µM, 48 h).
CC(C)C[C@@H](NC(=O)[C@H](C)NC(=O)CNC(=O)[C@@H](NC=O)C(C)C)C(=O)N[C@@H](C)C(=O)N[C@@H](C(=O)N[C@H](C(=O)N[C@@H](C(=O)N[C@@H](Cc1c[nH]c2ccccc12)C(=O)N[C@H](CC(C)C)C(=O)N[C@@H](Cc1c[nH]c2ccccc12)C(=O)N[C@H](CC(C)C)C(=O)N[C@@H](Cc1c[nH]c2ccccc12)C(=O)N[C@H](CC(C)C)C(=O)N[C@@H](Cc1c[nH]c2ccccc12)C(=O)NCCO)C(C)C)C(C)C)C(C)C: “cells in G2/M phase” 24.7 ± 2.54% (flow cytometry; 20 nM, 48 h).
For CC(=O)[O][Pd][c]1ccccc1-n1nc(C)cc1C.CC(=O)[O][Pd][c]1ccccc1-n1nc(C)cc1C, “G1 phase cells” read 27.7 ± 3.68% (PI flow cytometry; 25 µM, 24 h).
C=CCc1c(O)cc2c(c1O)C(=O)CC(c1ccc(O)cc1)O2 (stereo not shown) gave a growth inhibition of -10.2% (cytotoxicity, MTT; 0.8 µM, 48 h).
With CC[C@@H]([C@H](C)c1ccc(O)cc1)[C@H](CC)c1ccc(O)cc1 the EC50 was 0.018 µM (cell growth or viability, ATP luminescence; 5 days).
C[C@@H]1CC[C@@H]([C@@](O)(COCc2ccccc2)Cn2cnc3ccccc32)[C@H](OCc2ccccc2)C1 has an inhibition of 67.5% (cell growth or viability, MTT; 10 µM, 72 h).
Under “G1 phase cells”, Cc1c(COc2cc(OCc3cccc(C#N)c3)c(CNC(CO)(CO)CO)cc2Cl)cccc1-c1cccc(OCCCCCC(=O)NO)c1 is recorded as 59.1% (flow cytometry, PI staining; 10 µM, 48 h).
Under “early apoptotic cells”, CC(=NN=c1sc(C(=O)c2ccccc2)nn1-c1ccccc1)c1ccc(S(=O)(=O)N2CCC(C)CC2)cc1 is recorded as 5.86% (annexin V/PI; concentration not given, 72 h, at IC50).
The growth inhibition of COc1ccc(C2CC(=O)c3c(cc(O)c(CC=C(C)C)c3O)O2)cc1 (stereo not shown) is reported as 4.87% (cytotoxicity, MTT; 2.822 µM, 48 h).
C[C@@H]1CC[C@@H]([C@](O)(CNCc2ccc(F)cc2)COCc2ccccc2)[C@H](OCc2ccccc2)C1 gave an inhibition of 98.6% (cell growth or viability, MTT; 30 µM, 72 h).
The growth inhibition of CCC(=CCc1c(O)cc2c(c1O)C(=O)CC(c1ccccc1O)O2)CC (stereo not shown) is reported as 77.4% (cytotoxicity, MTT; 108.6 µM, 48 h).
The inhibition of C[C@@H]1CC[C@@H]([C@](O)(CNCc2ccccc2F)COCc2ccccc2)[C@H](OCc2ccccc2)C1 is reported as 97.4% (cell growth or viability, MTT; 10 µM, 72 h).
